Measurements of several laboratories.
Values joined by “and” are separate records of one study, mostly repeats; a detail may differ.
Partner: itself
B1: Gm4951 N86K (Mus musculus, UniProt Q3UED7); sequence looked up; chain MGQLFSSRRSEDQDLSSSFIEYLKECEKGINIIPHEIITSIEINMKKGNIQEVNSTVRDMLREIDNTPLNVALTGETGSGKSSFIKTLRGIGHEEGGAAHTGVTDKTKERHPYEHPKMPNVVFWDLPGTGSEDFQPKTYLEKMKFYEYDFFIIISATRFKKNDIDLAKAIGIMKKEFYFVRTQVDSDLRNEEDFKPQTFDREKVLQDIRLNCVNTFRENGIAEPPIFLISNKNVCHYDFPVLMDKLISDLPVFKRQNFMFSLPNITDSVIEKKRNFLRWKTWLEGFADGLLSFFLESDLETLEKSMKFYRTVFGVDDASLQRLARAWEIDQVDQVRAMIKSPAVFTPTDEETIQERLSRYNQEFCLANGYLLPKNHCREILYLKLYFLDMVTEDAKTLLKEICLRN
B2: Pah F80L (Rattus norvegicus, UniProt P04176); sequence looked up; chain MAAVVLENGVLSRKLSDFGQETSYIEDNSNQNGAISLIFSLKEEVGALAKVLRLFEENDINLTHIESRPSRLNKDEYEFLTYLDKRTKPVLGSIIKSLRNDIGATVHELSRDKEKNTVPWFPRTIQELDRFANQILSYGAELDADHPGFKDPVYRARRKQFADIAYNYRHGQPIPRVEYTEEEKQTWGTVFRTLKALYKTHACYEHNHIFPLLEKYCGFREDNIPQLEDVSQFLQTCTGFRLRPVAGLLSSRDFLGGLAFRVFHCTQYIRHGSKPMYTPEPDICHELLGHVPLFSDRSFAQFSQEIGLASLGAPDEYIEKLATIYWFTVEFGLCKEGDSIKAYGAGLLSSFGELQYCLSDKPKLLPLELEKTACQEYSVTEFQPLYYVAESFSDAKEKVRTFAATIPRPFSVRYDPYTQRVEVLDNTQQLKILADSINSEVGILCNALQKIKS
B3: CENPE 1-407 (Homo sapiens, UniProt Q02224); sequence looked up; chain MAEEGAVAVCVRVRPLNSREESLGETAQVYWKTDNNVIYQVDGSKSFNFDRVFHGNETTKNVYEEIAAPIIDSAIQGYNGTIFAYGQTASGKTYTMMGSEDHLGVIPRAIHDIFQKIKKFPDREFLLRVSYMEIYNETITDLLCGTQKMKPLIIREDVNRNVYVADLTEEVVYTSEMALKWITKGEKSRHYGETKMNQRSSRSHTIFRMILESREKGEPSNCEGSVKVSHLNLVDLAGSERAAQTGAAGVRLKEGCNINRSLFILGQVIKKLSDGQVGGFINYRDSKLTRILQNSLGGNAKTRIICTITPVSFDETLTALQFASTAKYMKNTPYVNEVSTDEALLKRYRKEIMDLKKQLEEVSLETRAQAMEKDQLAQLLEEKDLLQKVQNEKIENLTRMLVTSSSL
B4: clcA C85A/H234C (Escherichia coli, UniProt P37019); chain MKTDTPSLETPQAARLRRRQLIRQLLERDKTPLAILFMAAVVGTLVGLAAVAFDKGVAWLQNQRMGALVHTADNYPLLLTVAFLASAVLAMFGYFLVRKYAPEAGGSGIPEIEGALEDQRPVRWWRVLPVKFFGGLGTLGGGMVLGREGPTVQIGGNIGRMVLDIFRLKGDEARHTLLATGAAAGLAAAFNAPLAGILFIIEEMRPQFRYTLISIKAVFIGVIMSTIMYRIFNCEVALIDVGKLSDAPLNTLWLYLILGIIFGIFGPIFNKWVLGMQDLLHRVHGGNITKWVLMGGAIGGLCGLLGFVAPATSGGGFNLIPIATAGNFSMGMLVFIFVARVITTLLCFSSGAPGGIFAPMLALGTVLGTAFGMVAVELFPQYHLEAGTFAIAGMGALLAASIRAPLTGIILVLEMTDNYQLILPMIITGLGATLLAQFTGGKPLYSAILARTLAKQEAEQLARSKAASASENT
B5: RBKS D27A (Homo sapiens, UniProt Q9H477); sequence looked up; chain MAASGEPQRQWQEEVAAVVVVGSCMTALVSLTSRLPKTGETIHGHKFFIGFGGKGANQCVQAARLGAMTSMVCKVGKDSFGNDYIENLKQNDISTEFTYQTKDAATGTASIIVNNEGQNIIVIVAGANLLLNTEDLRAAANVISRAKVMVCQLEITPATSLEALTMARRSGVKTLFNPAPAIADLDPQFYTLSDVFCCNESEAEILTGLTVGSAADAGEAALVLLKRGCQVVIITLGAEGCVVLSQTEPEPKHIPTEKVKAVDTTGAGDSFVGALAFYLAYYPNLSLEDMLNRSNFIAAVSVQAAGTQSSYPYKKDLPLTLF
B6: tad1 1-493 (Ustilago maydis, UniProt A0A0U2UYC4); chain MAPALNANPTTKRDELSAPSASHKLGMSSMASRAAGGGLKLTGLPDLSDSAGTLSDIFGTPQMREIWSDQNRVACYLEIEAALAIVQADLGIIPKNAAHEIVEHCRVQEIDWALYKQKTELIGYPVLGIVQQLVANCKDGLGEYCHWGATTQDITDTATVMQIRQSLTLVKQRLDSIVSSLEHLAEQHRNVPMAARSNLKQAVPITFGFKMARFLATFRRHQQRLVELEKRVYTLEFGGAAGNLSSLGDQGIATHDALAKMLDLAPAEIAWHTEHDRFAEVGTFLGLLTGTLAKLATDIKLMSQTEVGEVGEPFISNRGSSSTMPQKNNPISCVYIHACAANVRQGAAALLDAMQSDHERGTGPWEIIWVQLPLMMNWTSAALNNADFVLRGLQVFPDAMQHNLDLSKGLIVSEAVMMGLGNTLGRQYAHDAVYECCRTAFVQDRPLLDVLLENHEIASKLDRTELEKLCDPANYLGQCSQWIDRVLSRPSSA
B7: OSCA1.2 1-771 (Arabidopsis thaliana, UniProt Q5XEZ5); chain MATLQDIGVSAGINILSAFVFFIIFAVLRLQPFNDRVYFSKWYLKGLRSSPARGGAFAQRFVNLDFRSYMKFLNWMPEALKMPEPELIDHAGLDSVVYLRIYWLGLKIFTPIAVLAWAVLVPVNWTNNTLEMAKQLRNVTSSDIDKLSVSNIPEYSMRFWTHIVMAYAFTIWTCYVLMKEYETIANMRLQFVASEARRPDQFTVLVRNVPPDADESVSELVEHFFLVNHPDHYLTHQVVCNANKLADLVKKKKKLQNWLDYYQLKYARNNSQRIMVKLGFLGLWGQKVDAIEHYIAEIDKISKEISKEREEVVNDPKAIMPAAFVSFKTRWAAAVCAQTQQTRNPTQWLTEWAPEPRDVFWSNLAIPYVSLTVRRLIMHVAFFFLTFFFIVPIAFVQSLATIEGIVKAAPFLKFIVDDKFMKSVIQGFLPGIALKLFLAFLPSILMIMSKFEGFTSISSLERRAAFRYYIFNLVNVFLASVIAGAAFEQLNSFLNQSANQIPKTIGVAIPMKATFFITYIMVDGWAGVAGEILMLKPLIMFHLKNAFLVKTDKDREEAMDPGSIGFNTGEPRIQLYFLLGLVYAPVTPMLLPFILVFFALAYIVYRHQIINVYNQEYESAAAFWPDVHGRVIAALVISQLLLMGLLGTKHAALAAPFLIALPVLTIGFHHFCKGRYEPAFIRYPLQEAMMKDTLETAREPNLNLKGYLQNAYVHPVFKGDEDDYDIDDKLGKFEDEAIIVPTKRQSRRNTPAPSIISGDDSPSLPFSGKLV
B8: cfbA 1-143 S11V (Methanocaldococcus jannaschii, UniProt Q58380); chain MEALVLVGHGVRLPYSKELLVKLAEKVKERNLFPIVEIGLMEFSEPTIPQAVKKAIEQGAKRIIVVPVFLAHGIHTTRDIPRLLGLIEDNHEHHHEHSHHHHHHHHHEHEKLEIPEDVEIIYREPIGADDRIVDIIIDRAFGR
B9: spo0J K257A (Bacillus subtilis, UniProt P26497); chain MAKGLGKGINALFNQVDLSEETVEEIKIADLRPNPYQPRKHFDDEALAELKESVLQHGILQPLIVRKSLKGYDIVAGERRFRAAKLAGLDTVPAIVRELSEALMREIALLENLQREDLSPLEEAQAYDSLLKHLDLTQEQLAKRLGKSRPHIANHLRLLTLPENIQQLIAEGTLSMGHGRTLLGLKNKNKLEPLVQKVIAEQLNVRQLEQLIQQLNQNVPRETKKKEPVKDAVLKERESYLQNYFGTTVNIKRQKKAGKIEIEFFSNEDLDRILELLSERES
B10: ADAR 127-1226 (Homo sapiens, UniProt P55265-1); sequence looked up; chain SSHFQELSIYQDQEQRILKFLEELGEGKATTAHDLSGKLGTPKKEINRVLYSLAKKGKLQKEAGTPPLWKIAVSTQAWNQHSGVVRPDGHSQGAPNSDPSLEPEDRNSTSVSEDLLEPFIAVSAQAWNQHSGVVRPDSHSQGSPNSDPGLEPEDSNSTSALEDPLEFLDMAEIKEKICDYLFNVSDSSALNLAKNIGLTKARDINAVLIDMERQGDVYRQGTTPPIWHLTDKKRERMQIKRNTNSVPETAPAAIPETKRNAEFLTCNIPTSNASNNMVTTEKVENGQEPVIKLENRQEARPEPARLKPPVHYNGPSKAGYVDFENGQWATDDIPDDLNSIRAAPGEFRAIMEMPSFYSHGLPRCSPYKKLTECQLKNPISGLLEYAQFASQTCEFNMIEQSGPPHEPRFKFQVVINGREFPPAEAGSKKVAKQDAAMKAMTILLEEAKAKDSGKSEESSHYSTEKESEKTAESQTPTPSATSFFSGKSPVTTLLECMHKLGNSCEFRLLSKEGPAHEPKFQYCVAVGAQTFPSVSAPSKKVAKQMAAEEAMKALHGEATNSMASDNQPEGMISESLDNLESMMPNKVRKIGELVRYLNTNPVGGLLEYARSHGFAAEFKLVDQSGPPHEPKFVYQAKVGGRWFPAVCAHSKKQGKQEAADAALRVLIGENEKAERMGFTEVTPVTGASLRRTMLLLSRSPEAQPKTLPLTGSTFHDQIAMLSHRCFNTLTNSFQPSLLGRKILAAIIMKKDSEDMGVVVSLGTGNRCVKGDSLSLKGETVNDCHAEIISRRGFIRFLYSELMKYNSQTAKDSIFEPAKGGEKLQIKKTVSFHLYISTAPCGDGALFDKSCSDRAMESTESRHYPVFENPKQGKLRTKVENGEGTIPVESSDIVPTWDGIRLGERLRTMSCSDKILRWNVLGLQGALLTHFLQPIYLKSVTLGYLFSQGHLTRAICCRVTRDGSAFEDGLRHPFIVNHPKVGRVSIYDSKRQSGKTKETSVNWCLADGYDLEILDGTRGTVDGPRNELSRVSKKNIFLLFKKLCSFRYRRDLLRLSYGEAKKAARDYETAKNYFKKGLKDMGYGNWISKPQEEKNFYLCPV
B11: PCK1 S62A/T66A (Arabidopsis thaliana, UniProt Q9T074); sequence looked up; chain MSAGNGNATNGDGGFSFPKGPVMPKITTGAAKRGSGVCHDDSGPTVNATTIDELHSLQKKRAAPTAPINQNAAAAFAAVSEEERQKIQLQSISASLASLTRESGPKVVRGDPAEKKTDGSTTPAYAHGQHHSIFSPATGAVSDSSLKFTHVLYNLSPAELYEQAIKYEKGSFITSNGALATLSGAKTGRAPRDKRVVRDATTEDELWWGKGSPNIEMDEHTFMVNRERAVDYLNSLEKVFVNDQYLNWDPENRIKVRIVSARAYHSLFMHNMCIRPTQEELESFGTPDFTIYNAGQFPCNRYTHYMTSSTSVDLNLARREMVILGTQYAGEMKKGLFSVMHYLMPKRRILSLHSGCNMGKDGDVALFFGLSGTGKTTLSTDHNRYLIGDDEHCWTETGVSNIEGGCYAKCVDLSREKEPDIWNAIKFGTVLENVVFDEHTREVDYSDKSVTENTRAAYPIEFIPNAKIPCVGPHPTNVILLACDAFGVLPPVSKLNLAQTMYHFISGYTALVAGTEDGIKEPTATFSACFGAAFIMLHPTKYAAMLAEKMKSQGATGWLVNTGWSGGSYGVGNRIKLAYTRKIIDAIHSGSLLKANYKKTEIFGFEIPTEIEGIPSEILDPVNSWSDKKAHKDTLVKLGGLFKKNFEVFANHKIGVDGKLTEEILAAGPIF
B12: racE T25N/S192A (Dictyostelium discoideum, UniProt Q23862); sequence looked up; chain MSEDQGSGATRVKLVVVGDGAVGKNCLLICYAQNDFPVDYVPTVFENYTATRKRGNEDIKVHLWDTAGQEEYDRLRPLSYPGADVVLLCFSTISQSSYEAIRDKWAPEVNHYIPDVPSILVGTKIDLREQQHPDPNSGKFEPITADMGISMQKQIKAKKYLEVSAKTRQGLEEVFSAAIEIVLESRGMDKKAQDGSSSASGVPSGDKPTKGKAGKKKSGCIIL
UniProt Q9IAL8, sequence (whole entry, looked up): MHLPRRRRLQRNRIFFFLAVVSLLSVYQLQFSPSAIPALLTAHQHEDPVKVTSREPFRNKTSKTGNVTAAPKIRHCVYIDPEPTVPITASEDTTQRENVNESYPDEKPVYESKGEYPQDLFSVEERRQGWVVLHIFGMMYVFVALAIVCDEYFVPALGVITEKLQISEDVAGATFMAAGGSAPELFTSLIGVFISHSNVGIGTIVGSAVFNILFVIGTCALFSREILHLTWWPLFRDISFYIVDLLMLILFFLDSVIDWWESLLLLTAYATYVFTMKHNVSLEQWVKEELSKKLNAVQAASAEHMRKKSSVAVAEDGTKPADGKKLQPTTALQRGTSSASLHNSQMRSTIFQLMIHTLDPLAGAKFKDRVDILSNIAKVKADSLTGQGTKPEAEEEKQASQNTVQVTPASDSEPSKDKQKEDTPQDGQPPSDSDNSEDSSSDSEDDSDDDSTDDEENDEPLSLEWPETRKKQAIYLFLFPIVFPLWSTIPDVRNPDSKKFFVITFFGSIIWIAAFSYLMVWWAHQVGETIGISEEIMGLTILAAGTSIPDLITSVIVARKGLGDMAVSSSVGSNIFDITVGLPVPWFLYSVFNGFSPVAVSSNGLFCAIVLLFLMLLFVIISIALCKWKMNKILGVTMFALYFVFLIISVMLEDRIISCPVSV
UniProt P61889, sequence (whole entry, looked up): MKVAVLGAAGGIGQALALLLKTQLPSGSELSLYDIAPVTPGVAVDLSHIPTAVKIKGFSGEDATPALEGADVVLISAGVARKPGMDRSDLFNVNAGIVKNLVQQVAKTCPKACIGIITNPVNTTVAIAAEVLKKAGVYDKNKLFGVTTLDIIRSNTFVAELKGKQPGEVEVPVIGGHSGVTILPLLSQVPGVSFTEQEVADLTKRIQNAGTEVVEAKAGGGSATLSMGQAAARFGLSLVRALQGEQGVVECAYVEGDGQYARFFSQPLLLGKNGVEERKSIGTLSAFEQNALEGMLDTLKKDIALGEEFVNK

`protein (Bacillus pumilus, UniProt A3FMN7)` — result for “subunits per oligomer”: 2 (AUC).
Under “subunits per oligomer”, `B1 (Gm4951 N86K)` is recorded as 2 (mass photometry).
Under “subunits per oligomer”, `B2 (Pah F80L)` is recorded as 4 and 2 (SEC).
Under “subunits per oligomer”, `B3 (CENPE 1-407)` is recorded as 2 (AUC, SEC).
Under “subunits per oligomer”, `RQIVDAQAVCTRCKESADFWCFECEQLLCAKCFEAHQWFLKHEARPLAE (PML 120-168 (Homo sapiens, UniProt P29590-1); sequence looked up)` is recorded as 2 (AUC).
`B4 (clcA C85A/H234C)` — result for “subunits per oligomer”: 2 (single-molecule photobleaching).
`PCK1 (Arabidopsis thaliana, UniProt Q9T074)`: “subunits per oligomer” 6 (SEC).
For `B5 (RBKS D27A)`, “subunits per oligomer” read 2 (mass photometry).
Under “subunits per oligomer”, `B6 (tad1 1-493)` is recorded as 4 (SEC-MALS).
Under “subunits per oligomer”, `B7 (OSCA1.2 1-771)` is recorded as 2 (cryo-EM structure).
Under “subunits per oligomer”, `B8 (cfbA 1-143 S11V)` is recorded as 2 (SEC).
Under “subunits per oligomer”, `mdh (Escherichia coli, UniProt P61889)` is recorded as 2 (native MS).
For `B9 (spo0J K257A)`, “subunits per oligomer” read 2 (SEC-MALS).
`SLC24A1 (Gallus gallus, UniProt Q9IAL8)` — result for “subunits per oligomer”: 2 (cross-linking).
For `B10 (ADAR 127-1226)`, “subunits per oligomer” read 2 (SEC).
For `B11 (PCK1 S62A/T66A)`, “subunits per oligomer” read 6 (native PAGE).
`B12 (racE T25N/S192A)` — result for “subunits per oligomer”: 2 (SEC).
